Measurements of several laboratories.
Lines come from different studies, so protocols differ.
Cell line: HEK-293T

The IC50 of `O=C1NC(=O)C(=NNc2cc(S(=O)(=O)O)cc(S(=O)(=O)O)c2O)C(=O)N1` is reported as 73300 µM (cell growth or viability, trypan blue; 24 h).
`C=C(C)C12OC3(c4ccccc4)OC1C1C(O)C(Br)(CO)C(O)C4(O)C(=O)C(C)=CC4C1(O3)C(C)C2OC(=O)c1ccccc1` (stereo not shown): nuclear accumulation “decreased” (importin-β1 nuclear import, refers to: NFAT-GFP; 40 nM, 1 h, together with: ionomycin 30 min).
`CC(C)C12OC1C1OC13C1(C)CCC4=C(COC4=O)C1CC1OC13C2OC(=O)CCCOC1OC(CO)C(O)C(O)C1O` (stereo not shown) has an IC50 ratio of roughly 13 fold (cell proliferation, thymidine incorporation; reference: compound over triptolide).
The IC50 of `O=C(O)c1ccc([S][Au][PH](c2ccccc2)(c2ccccc2)[c-]2cccc2)cc1.[Fe+2].c1cc[cH-]c1` is reported as 3 µM (cell growth or viability, XTT; 72 h).
`C1=CCCC=CCC1.C1=CCCC=CCC1.O=C(N=P12CN3CN(CN(C3)C1)C2)c1cccc[c]1[Pt+].O=C(N=P12CN3CN(CN(C3)C1)C2)c1cccc[c]1[Pt+].[Cl][Hg-]([Cl])[Cl].[Cl][Hg-]([Cl])[Cl].[Cl][Hg][Cl].[Cl][Hg][Cl]` gave an IC50 of 4 µM (cell growth or viability, MTT; 24 h).
`[CH3][Ti+2][O]C(=O)c1ccc([S][Au][PH](c2ccccc2)(c2ccccc2)[c-]2cccc2)cc1.[Fe+2].c1cc[cH-]c1.c1cc[cH-]c1.c1cc[cH-]c1` gave an IC50 of 3.09 µM (cell growth or viability, XTT; 72 h).
The IC50 of `CC1(C)O[C@H](COP2(=O)OCc3ccccc3O2)[C@H](C(=O)NO)O1` (stereo partly shown) is reported as greater than 200 µM (cytotoxicity, Alamar Blue).
With `C1=CCCC=CCC1.C1=CCCC=CCC1.[Cl][Hg-]([Cl])[Cl].[Cl][Hg-]([Cl])[Cl].[Pt+][c]1ccccc1P(=Nc1ccccc1)(c1ccccc1)c1ccccc1.[Pt+][c]1ccccc1P(=Nc1ccccc1)(c1ccccc1)c1ccccc1` the IC50 was 1.25 µM (cell growth or viability, MTT; 24 h).
For `O=C(C[P+]([Au-][Cl])(c1ccccc1)c1ccccc1)[O][Ti+2][O]C(=O)C[P+]([Au-][Cl])(c1ccccc1)c1ccccc1.c1cc[cH-]c1.c1cc[cH-]c1`, the IC50 was 6.9 µM (cell growth or viability, XTT; 72 h).
The IC50 of `COc1ccc(CONC(=O)C2OC(C)(C)OC2COP2(=O)OCc3ccccc3O2)c(OC)c1` (stereo not shown) is reported as greater than 200 µM (cytotoxicity, Alamar Blue).

A few entries again:
The IC50 of `O=C1NC(=O)C(=NNc2cc(S(=O)(=O)O)cc(S(=O)(=O)O)c2O)C(=O)N1` is reported as 73300 µM (cell growth or viability, trypan blue; 24 h).
